Results collected from several papers.
Each numbered part is a random draw from the data of one study; scales do not carry over between parts. Substitutions count along the parent as printed.

Block 1
Target: OGT, full length, His-tagged (human)
Technique: phage display, sequencing
Medium: in vitro
Tested at: 1 µg OGT
Notes: single substitutions, 15-mer displayed peptide, unchanged parent 19.6
Baseline: input library
Reading: higher = stronger binding
Starting sequence: peptide; TAPFYPPAYQIQVFK
Change	fold enrichment [fold]
TAPFYPPTYQIQVFK [A8T]	1.58
TAPFYPPAYQIQNFK [V13N]	1.57
TAPFYPPAYQIQGFK [V13G]	3.44
TAPFYPPAYQIQVFG [K15G]	9.82
TAPFYLPAYQIQVFK [P6L]	1.55
TAPFYPPAYQIQVFL [K15L]	9.39
TAPHYPPAYQIQVFK [F4H]	14.9
TFPFYPPAYQIQVFK [A2F]	19.2

Block 2
Target: PABPC1L2, full length, GST fusion (mouse, UniProt A0ABA7IW68)
Technique: RNAcompete
Form: RNA
Medium: in vitro
Tested at: 20 nM
Notes: 7-mer, probes averaged, single round
Baseline: mean of 7-mers
Reading: higher = stronger binding
Construct (chain): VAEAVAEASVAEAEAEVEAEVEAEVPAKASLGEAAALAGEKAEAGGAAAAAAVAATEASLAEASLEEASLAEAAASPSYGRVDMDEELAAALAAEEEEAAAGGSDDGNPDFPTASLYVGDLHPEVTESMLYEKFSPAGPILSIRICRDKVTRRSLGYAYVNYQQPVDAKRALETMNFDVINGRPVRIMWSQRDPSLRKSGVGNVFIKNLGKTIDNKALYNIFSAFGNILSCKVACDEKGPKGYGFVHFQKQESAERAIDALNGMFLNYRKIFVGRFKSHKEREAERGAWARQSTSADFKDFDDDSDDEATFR
Sequence	7-mer Z-score
UGGGUCC	-0.079
AUUGUUC	-0.402
AGCAGCG	-0.0192
GCACUCU	-0.26
GCCCGAU	-0.159
GGACUCA	0.0696
AGAGCAC	-0.175
UACAAGC	-0.0409

Block 3
Target: inorganic phosphate, free oxyanion
Technique: microfluidic competitive inhibition
Medium: in vitro, cell-free expressed
Tested at: not given
Notes: derived from inhibition constants, unchanged parent 615000 nM
Reading: lower = stronger binding
Starting sequence: PafA, mature enzyme, eGFP fusion (Elizabethkingia meningoseptica, UniProt Q9KJX5); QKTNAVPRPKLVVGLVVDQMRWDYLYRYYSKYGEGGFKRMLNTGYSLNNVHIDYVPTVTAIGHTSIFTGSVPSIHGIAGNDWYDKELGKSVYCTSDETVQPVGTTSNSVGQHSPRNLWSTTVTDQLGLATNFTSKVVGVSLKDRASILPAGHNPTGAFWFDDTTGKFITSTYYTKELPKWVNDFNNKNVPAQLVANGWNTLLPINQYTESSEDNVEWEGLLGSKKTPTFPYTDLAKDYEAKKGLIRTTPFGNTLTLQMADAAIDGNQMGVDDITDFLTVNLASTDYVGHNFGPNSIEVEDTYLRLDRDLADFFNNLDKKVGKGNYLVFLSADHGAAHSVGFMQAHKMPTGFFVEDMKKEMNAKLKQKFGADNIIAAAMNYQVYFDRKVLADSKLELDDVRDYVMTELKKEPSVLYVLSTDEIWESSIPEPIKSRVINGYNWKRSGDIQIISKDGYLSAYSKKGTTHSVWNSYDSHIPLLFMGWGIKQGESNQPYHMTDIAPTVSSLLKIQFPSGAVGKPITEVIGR
Change	phosphate dissociation constant [µM]
I449G	642
L414G	339
T521V	665
S457G	507
I374V	672

Block 4
Target: CCNA2, cyclin fold, Cln2 fusion (human)
Technique: yeast growth competition, sequencing
Medium: yeast
Notes: strong parent motif
Baseline: not given
Reading: higher = stronger binding
Starting sequence: viral docking peptide; PTARRRLLHDLDT; partner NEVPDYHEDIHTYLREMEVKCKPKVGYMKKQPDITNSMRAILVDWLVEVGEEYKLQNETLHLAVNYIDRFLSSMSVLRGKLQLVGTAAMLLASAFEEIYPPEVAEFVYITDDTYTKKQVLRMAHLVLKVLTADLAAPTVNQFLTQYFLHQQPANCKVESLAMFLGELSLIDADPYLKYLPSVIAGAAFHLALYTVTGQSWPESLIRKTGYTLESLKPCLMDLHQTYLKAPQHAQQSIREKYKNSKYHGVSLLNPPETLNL
Change	normalised enrichment score
PTARKRLFHDLDT [R5K L8F]	5.86
PTARARLLHDLDT [R5A]	0.488
PTARRRLLHDLDA [T13A]	3.63

A few entries again (block 3):
Change	phosphate dissociation constant [µM]
L414G	339
T521V	665
S457G	507
I374V	672
